Results from different studies.
Protocols differ between the studies behind these lines. Several values in a cell are separate wells, animals, samples, runs or records. ± marks the error that the study gave.

`CN1CCC[C@H](CN2c3ccccc3Sc3ccccc32)C1.Cl` has a Cmax of 1010 ng/g (fasted female ICR mouse, skin; oral, 16 mg/kg).
With `OC[C@H]1O[C@@H](c2ccc(F)c(Cc3cc4ccccc4s3)c2)[C@H](O)[C@@H](O)[C@@H]1O` the renal clearance was 2.07 ± 0.322 mL/min (Japanese type 2 diabetes patients, plasma; oral, 50 mg/day, day 1).
The CC50 of `CN(c1ccc(F)cc1)c1c(-c2cc(Cl)ccn2)nc2ccccn12` is reported as 31.6 µM (peritoneal macrophages, Swiss mice; 5 days, 5% fetal calf serum).
Under “bioavailability increase fed vs fasted”, `O=C1CC[C@H](N2Cc3cc(N4CCN(CC5CCN(c6ccc([C@@H]7c8ccc(O)cc8CC[C@@H]7c7ccccc7)cc6)CC5)CC4)ccc3C2=O)C(=O)N1` is recorded as 1.67 fold (female Sprague-Dawley rat, plasma; oral, 20 mg/kg; relative to: fasted state).
`CCCCCN(C)CCC(O)(P(=O)(O)O)P(=O)(O)OP(=O)(O)OC[C@H]1O[C@@H](n2ccc(N)nc2=O)C(F)(F)[C@@H]1O` (stereo partly shown): “hydrolysis rate constant” 0.09 h⁻¹ (HEPES buffer; pH 7.4, 37 °C).
With `Cc1cccc(CNC(=O)c2cn(CCNC(=O)c3ccccc3S)c3cc4c(cc3c2=O)OC(F)(F)O4)n1` the AUC(0-t) was 2310 ± 964 ng·h/mL (Sprague-Dawley rat, male, whole blood; intramuscular, 3 mg/kg of parent compound).
Under “plasmablast count change”, `Cn1cc(Nc2nccc(-c3ccc4c(c3)CN(C3COC3)CC[C@H]4NC(=O)c3cn(C(C)(C)C)nn3)n2)cn1` is recorded as -53.6% (human, whole blood; 150 mg twice daily, day 14; relative to: pre-dose baseline).
`CCO[C@H]1CCN(Cc2c(OC)cc(C)c3[nH]ccc23)[C@H](c2ccc(C(=O)O)cc2)C1` has a total half-life of 25.9 h (human severe hepatic impairment, plasma; oral, 200 mg single dose, median).
With `CNC(=O)c1ccc(-c2cnc3ncc(Cc4ccc5ncccc5c4)n3n2)cc1F` the headache incidence was 11.5% (healthy human subjects; oral, dose not given, all grades, all causality, with: rifampicin; relative to: subjects).
`OC[C@H]1O[C@@H](c2ccc(Cl)c(Cc3ccc(O[C@H]4CCOC4)cc3)c2)[C@H](O)[C@@H](O)[C@@H]1O`: “change in ALT” 1 U/L (Japanese type 1 diabetes patients, blood; 25 mg, day 28; relative to: baseline).
`Cc1cc(NC2CCN(C(=O)OC3CCN(C(=O)/C=C/CN(C)C)C3)CC2)n2ncc(C(C)C)c2n1` (stereo not shown): “patients with adverse event” 0% (Phase I dose escalation CTCAE v4.0, refers to: back pain; patients with advanced solid tumours; dose not given, TIW dosing grade 3 or higher).
The incidence of `C=CC(=O)N1CCC(c2ccc(C(N)=O)c(-c3ccc(Oc4ccccc4)cc3)n2)CC1` is reported as 0.9% (serious adverse event Headache; patients with relapsed/refractory MCL; oral).
For `Nc1ncnc2c1ncn2[C@H]1C[C@@H]2OP(=O)(O)OC[C@H]3O[C@@H](n4cnc5c(N)ncnc54)C[C@@H]3OP(=O)(O)OC[C@H]2O1`, the total bilirubin was 3.72 ± 1.05 µmol/L (non-tumor-bearing mice, serum; intravenous, 1 mg/kg, toxicity study).
The Vz/F decrease of `COc1cc2nccc(Oc3ccc(NC(=O)NC4CC4)c(Cl)c3)c2cc1C(N)=O` is reported as 41.4% (Sprague-Dawley rats male, plasma; oral, dose not given, with: posaconazole; relative to: without posaconazole).
The concentration of `O=C(N[C@H](Cc1c[nH]c2ccccc12)C(=O)Nc1ccncc1)c1ccc(-c2ccc(F)c(Cl)c2)cc1F` is reported as 20.5 µM (Swiss Webster mouse, female, heart; oral, 50 mg/kg, 8 h, 20% Kolliphor vehicle).
The DT50 of `CC(C)C(=O)O[C@H]1[C@H](C)OC(=O)[C@@H]1Cc1ccccc1` is reported as 0.84 days (water/sediment; 20 °C, whole system, geometric mean, aerobic dark).
For `Cc1nc(-c2ccc(OCC(C)C)c(C#N)c2)sc1C(=O)O`, the body weight was 30.4 g and 32 g and 32.6 g and 39.4 g and 35.6 g and 35.8 g (KM mouse, chronic hyperuricaemia model; dose not given, day 15).
For `CC(C)(C(=O)N1CCOc2c(C#N)cncc2C1)C(F)F`, “subjects with TEAE” read 0% (refers to: skin irritation; healthy humans, both sexes; oral, 10 mg single dose).
`C=CC[C@@H]1/C=C(\C)C[C@H](C)C[C@H](OC)[C@H]2O[C@@](O)(C(=O)C(=O)N3CCCC[C@H]3C(=O)O[C@H](/C(C)=C/[C@@H]3CC[C@@H](O)[C@H](OC)C3)[C@H](C)[C@@H](O)CC1=O)[C@H](C)C[C@@H]2OC` — result for “patients with subtherapeutic C0”: 41% (kidney transplant recipients, CYP3A5*3/*3 poor metabolizers, whole blood; oral, dose not given).
Under “incidence impaired fasting glucose”, `CCO[C@H]1CCN(Cc2c(OC)cc(C)c3[nH]ccc23)[C@H](c2ccc(C(=O)O)cc2)C1` is recorded as 0% (PNH patients, active haemolysis; oral, 50 mg, 4 weeks, treatment).
The Vss of `COC[C@H]1C[C@@H](c2ncc(-c3ccc4c(c3)COc3cc5c(ccc6nc([C@@H]7CC[C@H](C)N7C(=O)[C@@H](NC(=O)OC)C(C)C)[nH]c65)cc3-4)[nH]2)N(C(=O)[C@H](NC(=O)OC)c2ccccc2)C1` is reported as 2.2 L/kg (human, plasma; oral, 150 mg).
For `N#Cc1ccc2c(c1)[C@H]1CCCN(C(=O)c3ccc4[nH]cnc4c3)[C@H]1C2`, “pre-dose plasma concentration” read 1820 nmol/L (human, plasma; 240 mg once daily, day 28).
`Cc1ccc([C@@H]2O[C@H](CO)[C@@H](O)[C@H](O)[C@H]2O)cc1Cc1ccc(-c2ccc(F)cc2)s1`: “urinary potassium excretion change” 2.96 mEq (Japanese type 2 diabetes patients; 200 mg, day 16, 24 h urine collection; relative to: baseline).
The ulcer number of `C/C(=N\NC(=O)Cn1c(-c2ccc(S(C)(=O)=O)cc2)nc2cc(Cl)ccc21)c1ccc(Cl)cc1` is reported as 4.1% (rat, stomach; concentration not given, 4 h; relative to: indomethacin).
`CNCc1ccc(-c2[nH]c3cc(F)cc4c3c2CCNC4=O)cc1`: “malignant neoplasm progression incidence” 0% (human patients; oral, 600 mg twice daily, grade 4).
With `COc1ccc([C@@H](O)c2cc(-c3ncnc4cc(N5CCOCC5)ccc34)c(F)cc2Cl)nn1` the renal clearance was 2.05 mL/min (geometric mean; healthy volunteers, urine; oral, 100 mg, all treatments overall).
`FC(F)(F)c1ccc(CNc2ccc(Cc3c[nH]c4ncc(Cl)cc34)cn2)cn1` — result for “treatment-related adverse events”: 0% (refers to: memory impairment; human, advanced solid tumours, non-TGCT cohort; oral, 1000 mg/day, grade 3 or higher).
`O=C(Nc1nc2cccc(-c3ccc(CN4CCS(=O)(=O)CC4)cc3)n2n1)C1CC1` — result for “treatment-emergent adverse events”: 0% (refers to: gastrointestinal pain; human rheumatoid arthritis patients; oral, 150 mg once daily, 4 weeks, regardless of relatedness).
The concentration of `COc1ccc2c(=O)n(C)c(-c3ccccc3)nc2c1` is reported as 15 ng/mL (Sprague-Dawley rat, male, large intestine; oral, 30 mg/kg, 0.25 h).
The solubility of `O=c1c2ccccc2oc2ccccc12` is reported as 0.0809 mole fraction (tricaprin-tricaprylin mixture; 60 °C, tricaprin fraction 0.56).
With `CO[C@H]1C[C@@H]2CC[C@@H](C)[C@@](O)(O2)C(=O)C(=O)N2CCCC[C@H]2C(=O)O[C@H]([C@H](C)C[C@@H]2CC[C@@H](OC(=O)NCCOCCOCCOCCOCCOCCOCCOCCOCCC(=O)N3CCc4cc(Cn5nc(-c6ccc7oc(N)nc7c6)c6c(N)ncnc65)ccc4C3)[C@H](OC)C2)C[C@@H](O)[C@H](C)/C=C(\C)[C@@H](O)[C@@H](OC)C(=O)[C@H](C)C[C@H](C)/C=C/C=C/C=C/1C` the Tmax was 1 h (human, plasma; intravenous, 3 mg, cycle 1 day 1, arithmetic mean).
`Cc1ccc(Sc2ccccc2N2CCNCC2)c(C)c1` — result for “participants with TEAE”: 0% (refers to: ureteric calculus; healthy adult women; oral, 5 mg daily, 12 days).
`COc1ccnc(C(=O)NCC(=O)O)c1O` gave a DT50 of 32.8 days (aerobic soil incubation; soil; worst-case terminal value, for exposure modelling).
With `C=CC(=O)Nc1cc(Nc2nccc(-c3cn(C)c4ccccc34)n2)c(OC)cc1N(C)CCN(C)C` the recovery was 55.1% (storage stability; human plasma; 30 d, on ice, HQC level).
The half-life median of `COC(=O)N[C@@H](C)CNc1nccc(-c2cn(C(C)C)nc2-c2cc(Cl)cc(NS(C)(=O)=O)c2F)n1` is reported as 3.72 h (humans, plasma; oral, day 14, steady state, with: binimetinib).
With `N#Cc1ccc2c(c1)[C@H]1CCCN(C(=O)c3ccc4[nH]cnc4c3)[C@H]1C2` the DHEA-S level was 5.1 µmol/L (human, male; 10 mg, day 7).
For `CCOc1c([C@H](C)n2nc(C)c3c(N)ncnc32)cc(Cl)c(F)c1[C@@H]1CNC(=O)C1`, “share of ECG observations” read 95.1% (refers to: QRS ≤ 100 ms; previously treated B-cell malignancy; oral, dose not given, baseline below thresholds, all doses).
For `CCN1/C(=C/C(C)=O)Sc2ccc(F)cc21`, “mean blood pressure” read 90 ± 4 mmHg (cynomolgus monkey; oral, 100 mg/kg, 0.5 h post-dose).
For `C[C@@H](c1ncncc1F)[C@](O)(Cn1cncn1)c1ccc(F)cc1F`, the drug-related TEAE was 36.4% (human; oral, 400 mg, drug interaction trial).
Under “grade ≥3 Pneumonia patients”, `COc1cc2nccc(Oc3ccc(NC(=O)c4cc5c(n(-c6ccccc6)c4=O)CCCC5=O)nc3)c2cc1OC` is recorded as 0% (relapsed or refractory AML; oral, 10 mg once daily).
The peak area of `OB1NN=Cc2ccccc21` is reported as 306000 a.u. and 301000 a.u. and 304000 a.u. (stability, UPLC-MS; diluted serum; 4 day, 37 °C; higher = more compound remaining).
`O=C(O)CCC(=O)O.[2H]C([2H])([2H])Oc1cc(C)c2[nH]ccc2c1CN1CC[C@@H](C2CC2)C[C@H]1c1ccc(C(=O)O)cc1` — result for “subjects with papular urticaria TEAE”: 12.5% (multiple ascending dose; healthy Chinese subjects; 200 mg once daily).
`C=CCN1CC(=O)N2[C@@H](Cc3ccc(O)cc3F)C(=O)N(Cc3cccc(N4CC(N5CCN(CC)CC5)C4)n3)C[C@@H]2N1C(=O)NCc1ccccc1` — result for “any treatment-related adverse event”: 0% (advanced solid tumour patients; oral, 120 mg twice daily, grade ≥3, dose-escalation).
Under “CL/F, geometric mean”, `Cc1cc(Nc2ncnc3ccc(NC4=NC(C)(C)CO4)cc23)ccc1Oc1ccn2ncnc2c1` is recorded as 148 L/h (human, plasma; oral, 300 mg, day 1, single dose alone).
`CCN(CC)CCN(CCNCCc1ccc(O)c2[nH]c(=O)sc12)C(=O)CCOCCc1cccc2ccccc12` has a fraction unbound of 0.11 (equilibrium dialysis; rat, plasma).
`O=C(Nc1cnccc1Cl)N1CCN(Cc2ccc3c(c2)OC(F)(F)O3)CC1` — result for “postural dizziness incidence”: 0% (multiple ascending dose; young men; 10 mg, treatment-emergent adverse events).
The cumulative excretion of `Cc1cc(C)c(CNC(=O)c2cc(Cl)c3c(c2C)O[C@@](C)([C@H]2CC[C@H](N(C)C)CC2)O3)c(=O)[nH]1` is reported as 71.4% (refers to: total radioactivity; male human, feces; oral, 200 mg, 96 h; relative to: dose).
With `COc1ccnc(C(=O)N[C@H]2COC(=O)[C@H](Cc3ccccc3)[C@@H](O)[C@H](C)OC2=O)c1O` the DT50 was 10.2 days (aerobic dark soil incubation; soil; geometric mean of 4 soils, persistence endpoint).
The Tmax of `Cl.[2H]C([2H])([2H])CC(=O)c1cnc(NC(=O)C2CC2)cc1Nc1cccc(-c2ncn(C([2H])([2H])[2H])n2)c1OC` is reported as 1.12 h (median; human; oral, 20 mg once daily, day 7, fasted, liquid, multiple dose).
For `O=C(/C=C/c1cccc(S(=O)(=O)Nc2ccccc2)c1)NO`, the Vss was 24.3 L/m² (human patients, plasma; 1900 mg/m^2).
For `COc1cccc(OC)c1-c1cc(C(=O)NC2(C(=O)O)C3CC4CC(C3)CC2C4)nn1-c1ccc(C(=O)N(C)CCCN(C)CCCN(C)C(=O)CN2CCN(CC(=O)[O-])CCN(CC(=O)[O-])CCN(CC(=O)[O-])CC2)cc1C(C)C.[177Lu+3]` (stereo not shown), the tissue uptake was 0.133 %ID/g (mouse, HT-29 xenograft, heart; 24 h post injection).
Under “incidence of lower abdominal pain”, `NC1(C(=O)N[C@@H](CCO)c2ccc(Cl)cc2)CCN(c2nc[nH]c3nccc2-3)CC1` is recorded as 0% (metastatic CRPC patients; 400 mg b.i.d., any grade, treatment-related, with: enzalutamide 160 mg daily).
`CN(C)C(=N)N=C(N)N` — result for “subjects with adverse event”: 9.1% (refers to: gastrointestinal disorders; healthy men; oral, dose not given, 8 days, treatment-emergent, crossover trial).
For `C=CC(=O)N1CCC(Oc2cc3c(Nc4ccc(Cl)c(Cl)c4F)ncnc3cc2OC)CC1`, the Vz/F was 1.42 ± 0.26 L/kg (Sprague-Dawley rat, male, plasma; oral, 2 mg/kg, 1 weeks pretreatment, with: Schisandrin B 20 mg/kg daily pretreatment).
Under “serum GGT activity”, `CCc1cc(C(=O)NC)c2nccc(N3CCc4c(cc(Cn5ccnc5)cc4-c4cn(C)nc4C(F)(F)F)C3=O)c2c1` is recorded as 0.5 ± 0.58 U/L (Sprague Dawley rats; oral, 50 mg/kg once daily, 7 days).

Some of these lines once more:
`CNCc1ccc(-c2[nH]c3cc(F)cc4c3c2CCNC4=O)cc1`: “malignant neoplasm progression incidence” 0% (human patients; oral, 600 mg twice daily, grade 4).
The DT50 of `CC(C)C(=O)O[C@H]1[C@H](C)OC(=O)[C@@H]1Cc1ccccc1` is reported as 0.84 days (water/sediment; 20 °C, whole system, geometric mean, aerobic dark).
Under “incidence impaired fasting glucose”, `CCO[C@H]1CCN(Cc2c(OC)cc(C)c3[nH]ccc23)[C@H](c2ccc(C(=O)O)cc2)C1` is recorded as 0% (PNH patients, active haemolysis; oral, 50 mg, 4 weeks, treatment).
With `OC[C@H]1O[C@@H](c2ccc(F)c(Cc3cc4ccccc4s3)c2)[C@H](O)[C@@H](O)[C@@H]1O` the renal clearance was 2.07 ± 0.322 mL/min (Japanese type 2 diabetes patients, plasma; oral, 50 mg/day, day 1).
